Measured values of several laboratories.
Numbered parts are unrelated; each lists some results of a single study. Values joined by “and” are separate records of one study, mostly repeats; a detail may differ.
Sequence of UniProt P42336 (whole entry, unmodified, looked up): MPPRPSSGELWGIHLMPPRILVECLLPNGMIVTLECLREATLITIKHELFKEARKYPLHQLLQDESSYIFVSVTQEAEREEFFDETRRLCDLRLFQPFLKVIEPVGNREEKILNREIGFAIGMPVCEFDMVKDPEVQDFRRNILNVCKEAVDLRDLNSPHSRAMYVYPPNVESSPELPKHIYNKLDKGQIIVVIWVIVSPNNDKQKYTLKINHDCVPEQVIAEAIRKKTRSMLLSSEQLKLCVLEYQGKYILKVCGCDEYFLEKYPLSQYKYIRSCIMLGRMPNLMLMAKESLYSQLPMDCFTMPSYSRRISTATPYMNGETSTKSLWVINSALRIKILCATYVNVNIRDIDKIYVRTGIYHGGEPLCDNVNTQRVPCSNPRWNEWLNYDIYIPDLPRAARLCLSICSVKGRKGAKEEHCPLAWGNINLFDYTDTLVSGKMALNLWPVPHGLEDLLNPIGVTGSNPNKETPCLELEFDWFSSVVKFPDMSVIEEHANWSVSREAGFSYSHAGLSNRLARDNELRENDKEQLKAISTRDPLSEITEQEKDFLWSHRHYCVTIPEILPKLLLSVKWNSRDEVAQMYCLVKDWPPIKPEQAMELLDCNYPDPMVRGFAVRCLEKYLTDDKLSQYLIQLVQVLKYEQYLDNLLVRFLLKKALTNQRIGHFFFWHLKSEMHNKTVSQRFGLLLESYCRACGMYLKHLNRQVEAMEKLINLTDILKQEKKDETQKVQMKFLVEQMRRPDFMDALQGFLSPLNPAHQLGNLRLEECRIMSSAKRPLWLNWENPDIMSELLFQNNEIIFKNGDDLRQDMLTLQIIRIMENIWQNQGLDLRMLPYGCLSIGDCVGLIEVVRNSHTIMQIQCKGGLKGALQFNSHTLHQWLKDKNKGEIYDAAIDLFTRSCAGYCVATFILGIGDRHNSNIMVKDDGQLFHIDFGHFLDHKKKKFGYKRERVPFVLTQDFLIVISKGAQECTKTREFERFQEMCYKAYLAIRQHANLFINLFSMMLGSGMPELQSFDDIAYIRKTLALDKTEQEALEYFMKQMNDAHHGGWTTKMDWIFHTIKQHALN
Sequence of UniProt P35916 (whole entry, looked up): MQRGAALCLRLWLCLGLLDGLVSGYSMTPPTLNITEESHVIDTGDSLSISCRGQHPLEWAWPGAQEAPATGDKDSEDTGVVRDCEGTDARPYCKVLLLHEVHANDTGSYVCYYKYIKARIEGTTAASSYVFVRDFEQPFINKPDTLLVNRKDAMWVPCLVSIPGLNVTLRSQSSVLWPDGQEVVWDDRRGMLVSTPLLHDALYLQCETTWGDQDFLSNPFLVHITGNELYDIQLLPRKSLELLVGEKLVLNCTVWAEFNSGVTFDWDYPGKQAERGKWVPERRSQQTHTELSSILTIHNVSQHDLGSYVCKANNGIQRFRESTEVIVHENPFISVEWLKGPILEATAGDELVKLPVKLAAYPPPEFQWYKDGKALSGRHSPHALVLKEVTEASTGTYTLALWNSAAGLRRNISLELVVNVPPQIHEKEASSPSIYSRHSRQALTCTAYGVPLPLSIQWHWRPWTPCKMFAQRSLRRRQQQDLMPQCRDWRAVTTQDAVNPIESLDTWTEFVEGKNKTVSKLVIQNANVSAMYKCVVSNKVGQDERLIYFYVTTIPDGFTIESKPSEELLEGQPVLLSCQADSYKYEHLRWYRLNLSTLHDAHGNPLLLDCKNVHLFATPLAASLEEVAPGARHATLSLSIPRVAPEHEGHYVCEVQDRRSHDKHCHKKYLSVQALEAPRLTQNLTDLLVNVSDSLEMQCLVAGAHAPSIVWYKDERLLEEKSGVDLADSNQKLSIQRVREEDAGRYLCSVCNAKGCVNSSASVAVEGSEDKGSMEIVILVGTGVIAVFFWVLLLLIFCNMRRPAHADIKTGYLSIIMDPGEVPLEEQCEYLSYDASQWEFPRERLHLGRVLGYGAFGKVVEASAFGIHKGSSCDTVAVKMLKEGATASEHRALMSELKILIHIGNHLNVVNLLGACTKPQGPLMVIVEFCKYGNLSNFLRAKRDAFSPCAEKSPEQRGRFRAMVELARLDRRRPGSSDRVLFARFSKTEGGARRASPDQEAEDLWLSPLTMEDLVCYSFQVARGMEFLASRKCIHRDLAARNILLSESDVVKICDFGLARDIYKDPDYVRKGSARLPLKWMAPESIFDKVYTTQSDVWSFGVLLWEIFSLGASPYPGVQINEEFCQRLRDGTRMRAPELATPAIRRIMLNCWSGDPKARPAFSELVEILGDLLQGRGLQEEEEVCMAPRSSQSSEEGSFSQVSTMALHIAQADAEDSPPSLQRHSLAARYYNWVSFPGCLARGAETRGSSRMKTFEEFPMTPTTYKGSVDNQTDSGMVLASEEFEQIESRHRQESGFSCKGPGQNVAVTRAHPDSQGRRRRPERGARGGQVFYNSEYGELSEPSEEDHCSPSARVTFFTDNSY
Sequence of UniProt Q9Y6E0 (whole entry, looked up): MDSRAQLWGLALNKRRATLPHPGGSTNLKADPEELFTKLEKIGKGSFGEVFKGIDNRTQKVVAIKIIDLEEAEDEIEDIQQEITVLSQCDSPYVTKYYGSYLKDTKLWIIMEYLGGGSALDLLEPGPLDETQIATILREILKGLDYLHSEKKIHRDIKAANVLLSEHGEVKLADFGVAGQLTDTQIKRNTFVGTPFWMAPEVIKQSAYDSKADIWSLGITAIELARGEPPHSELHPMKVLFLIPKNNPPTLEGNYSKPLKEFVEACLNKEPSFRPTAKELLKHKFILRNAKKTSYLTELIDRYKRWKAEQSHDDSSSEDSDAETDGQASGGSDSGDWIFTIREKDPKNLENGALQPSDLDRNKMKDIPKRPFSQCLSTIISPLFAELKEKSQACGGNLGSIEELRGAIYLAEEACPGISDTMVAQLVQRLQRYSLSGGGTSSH
Sequence of UniProt O43318 (whole entry, looked up): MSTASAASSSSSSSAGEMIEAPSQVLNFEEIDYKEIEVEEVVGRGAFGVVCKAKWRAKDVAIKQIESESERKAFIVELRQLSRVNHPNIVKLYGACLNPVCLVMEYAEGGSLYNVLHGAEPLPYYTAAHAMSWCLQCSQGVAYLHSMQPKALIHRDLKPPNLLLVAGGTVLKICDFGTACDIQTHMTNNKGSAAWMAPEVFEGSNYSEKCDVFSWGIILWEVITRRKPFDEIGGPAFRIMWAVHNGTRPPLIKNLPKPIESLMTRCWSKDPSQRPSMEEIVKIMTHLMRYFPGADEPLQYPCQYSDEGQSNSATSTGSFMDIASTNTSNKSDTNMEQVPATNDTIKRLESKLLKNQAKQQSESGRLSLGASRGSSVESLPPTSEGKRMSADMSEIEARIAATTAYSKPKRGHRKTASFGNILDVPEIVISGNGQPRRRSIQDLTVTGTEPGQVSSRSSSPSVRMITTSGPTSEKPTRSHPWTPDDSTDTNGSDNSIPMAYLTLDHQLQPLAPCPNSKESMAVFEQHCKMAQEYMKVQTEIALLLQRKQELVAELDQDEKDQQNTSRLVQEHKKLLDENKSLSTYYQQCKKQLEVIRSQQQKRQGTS
Sequence of UniProt P21127 (whole entry, looked up): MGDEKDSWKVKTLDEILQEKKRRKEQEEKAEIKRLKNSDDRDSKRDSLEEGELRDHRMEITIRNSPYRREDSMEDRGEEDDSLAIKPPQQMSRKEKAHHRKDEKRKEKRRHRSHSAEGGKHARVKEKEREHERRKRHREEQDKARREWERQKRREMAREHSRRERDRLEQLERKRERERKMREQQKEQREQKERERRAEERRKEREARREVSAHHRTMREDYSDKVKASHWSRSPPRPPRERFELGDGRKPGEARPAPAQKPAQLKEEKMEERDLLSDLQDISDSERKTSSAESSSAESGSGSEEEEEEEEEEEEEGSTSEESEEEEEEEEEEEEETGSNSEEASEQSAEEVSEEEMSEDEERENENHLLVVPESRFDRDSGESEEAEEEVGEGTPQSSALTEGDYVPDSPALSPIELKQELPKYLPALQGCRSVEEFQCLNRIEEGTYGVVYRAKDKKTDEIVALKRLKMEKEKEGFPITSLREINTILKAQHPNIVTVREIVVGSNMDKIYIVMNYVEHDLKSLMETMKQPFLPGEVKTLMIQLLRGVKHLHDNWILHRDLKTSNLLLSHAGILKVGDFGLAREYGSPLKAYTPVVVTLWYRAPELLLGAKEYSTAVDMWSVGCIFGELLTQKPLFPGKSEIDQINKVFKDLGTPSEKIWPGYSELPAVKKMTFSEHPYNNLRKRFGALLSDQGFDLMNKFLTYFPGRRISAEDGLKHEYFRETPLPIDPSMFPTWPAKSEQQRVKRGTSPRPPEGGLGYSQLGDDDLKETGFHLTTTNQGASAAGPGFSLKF
Sequence of UniProt P42679 (whole entry, looked up): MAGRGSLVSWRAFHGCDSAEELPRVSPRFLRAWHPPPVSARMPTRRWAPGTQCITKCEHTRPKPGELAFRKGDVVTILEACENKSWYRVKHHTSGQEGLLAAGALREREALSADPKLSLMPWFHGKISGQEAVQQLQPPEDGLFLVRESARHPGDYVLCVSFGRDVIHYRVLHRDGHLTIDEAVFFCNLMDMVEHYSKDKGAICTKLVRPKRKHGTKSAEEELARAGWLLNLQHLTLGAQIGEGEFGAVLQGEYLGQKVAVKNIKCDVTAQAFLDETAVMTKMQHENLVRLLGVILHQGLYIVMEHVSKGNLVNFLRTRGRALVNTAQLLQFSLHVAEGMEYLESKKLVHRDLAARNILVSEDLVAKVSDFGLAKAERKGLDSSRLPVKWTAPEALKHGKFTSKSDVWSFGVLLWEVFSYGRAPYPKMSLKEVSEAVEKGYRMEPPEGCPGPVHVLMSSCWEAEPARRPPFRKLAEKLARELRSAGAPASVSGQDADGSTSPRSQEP

Sample 1
Species: mouse
Medium: microsomes or S9
Concentration: 2 µM
Time: 0.5 h
Endpoint: remaining compound
Cn1ccc(Cn2nnn(-c3cccs3)c2=O)cc1=O: 34.4%
CNC(=O)CC1CCOC2(CCN(C(=O)C3CCC3)CC2)C1 (stereo not shown): 95.6%
CC(C)CCN(C)C1CCN(S(=O)(=O)c2ccc(C(C)(C)C)cc2)CC1: 3.86%
O=C(N[C@H]1C2C=CC(C2)[C@H]1C(O)(c1ccccc1)c1ccccc1)OCc1ccccc1 (stereo partly shown): 53.4%

Sample 2
SMILES: CN(C)CC#Cc1ccc(OCCCc2sc(N3CCc4cccc(C(=O)Nc5nc6ccccc6s5)c4C3)nc2C(=O)O)c(F)c1
Concentration: 1 µM
Endpoint: remaining binding
Angiopoietin-1 receptor (TEK, Homo sapiens, UniProt Q02763); cell-free assay, competition with immobilised ligand: 100%
Serine/threonine-protein kinase 24 (STK24, Homo sapiens, UniProt Q9Y6E0); cell-free assay, competition with immobilised ligand: 93%
Vascular endothelial growth factor receptor 3 (FLT4, Homo sapiens, UniProt P35916); cell-free assay, competition with immobilised ligand: 100%
Serine/threonine-protein kinase 35 (STK35, Homo sapiens, UniProt Q8TDR2); cell-free assay, competition with immobilised ligand: 86%
Mitogen-activated protein kinase 4 (MAPK4, Homo sapiens, UniProt P31152); cell-free assay, competition with immobilised ligand: 89%
Megakaryocyte-associated tyrosine-protein kinase (MATK, Homo sapiens, UniProt P42679); cell-free assay, competition with immobilised ligand: 96%
Tyrosine-protein kinase Mer (MERTK, Homo sapiens, UniProt Q12866); cell-free assay, competition with immobilised ligand: 100%
Receptor-type tyrosine-protein kinase FLT3 (FLT3, Homo sapiens, UniProt P36888, N841I); cell-free assay, competition with immobilised ligand: 81%
Receptor-interacting serine/threonine-protein kinase 2 (RIPK2, Homo sapiens, UniProt O43353); cell-free assay, competition with immobilised ligand: 100%
Mitogen-activated protein kinase kinase kinase kinase 3 (MAP4K3, Homo sapiens, UniProt Q8IVH8); cell-free assay, competition with immobilised ligand: 92%
Phosphatidylinositol 4,5-bisphosphate 3-kinase catalytic subunit alpha isoform (PIK3CA, Homo sapiens, UniProt P42336, E545A); cell-free assay, competition with immobilised ligand: 100%
Beta-adrenergic receptor kinase 1 (GRK2, Homo sapiens, UniProt P25098); cell-free assay, competition with immobilised ligand: 100%
Death-associated protein kinase 1 (DAPK1, Homo sapiens, UniProt P53355); cell-free assay, competition with immobilised ligand: 91%
Protein-tyrosine kinase 6 (PTK6, Homo sapiens, UniProt Q13882); cell-free assay, competition with immobilised ligand: 96%
Phosphatidylinositol 4,5-bisphosphate 3-kinase catalytic subunit alpha isoform (PIK3CA, Homo sapiens, UniProt P42336, H1047L); cell-free assay, competition with immobilised ligand: 68%
Receptor-type tyrosine-protein kinase FLT3 (FLT3, Homo sapiens, UniProt P36888, R834Q); cell-free assay, competition with immobilised ligand: 100%
Tyrosine-protein kinase ABL1, phosphorylated (ABL1, Homo sapiens, UniProt P00519, F317I); binding: 100%
Mitogen-activated protein kinase 6 (MAPK6, Homo sapiens, UniProt Q16659); cell-free assay, competition with immobilised ligand: 94%
Tyrosine-protein kinase receptor TYRO3 (TYRO3, Homo sapiens, UniProt Q06418); cell-free assay, competition with immobilised ligand: 94%
Mitogen-activated protein kinase kinase kinase 7 (MAP3K7, Homo sapiens, UniProt O43318); cell-free assay, competition with immobilised ligand: 100%
Serine/threonine-protein kinase 17B (STK17B, Homo sapiens, UniProt O94768); cell-free assay, competition with immobilised ligand: 72%
Cyclin-dependent kinase 11B (CDK11B, Homo sapiens, UniProt P21127); cell-free assay, competition with immobilised ligand: 93%
Proto-oncogene tyrosine-protein kinase receptor Ret (RET, Homo sapiens, UniProt P07949, V804M); cell-free assay, competition with immobilised ligand: 98%

Sample 3
Cell line: A-375
Concentration: 100 µM
Time: 18 h
Endpoint: viability
CN1C(C(=O)Nc2ccccn2)=C(O)c2sc(Cl)cc2S1(=O)=O: 75.3%
CC1(C)[C@H]2CC[C@]1(C)C(=O)C2: 104%
Cc1cc(-c2ccc(/N=N/c3ccc4c(S(=O)(=O)O)cc(S(=O)(=O)O)c(N)c4c3O)c(C)c2)ccc1/N=N/c1ccc2c(S(=O)(=O)O)cc(S(=O)(=O)O)c(N)c2c1O: 109%
CCC(=O)NS(=O)(=O)c1ccc(-c2c(-c3ccccc3)noc2C)cc1: 101%
CCc1oc2ccccc2c1C(=O)c1cc(Br)c(O)c(Br)c1: 43%
CC(C)c1ccc2oc3nc(N)c(C(=O)O)cc3c(=O)c2c1: 94.8%

Sample 4
Target: panel of 300 human kinases
Concentration: 0.5 µM
Reading: higher = more selective
Endpoint: Gini score
CCN(CC)CCNC(=O)c1c(C)[nH]c(/C=C2\C(=O)Nc3ccc(Cl)cc32)c1C: 0.5
Ic1cccc(CSc2nnc(-c3ccncc3)o2)c1: 0.71
Cc1cncc2cccc(S(=O)(=O)N3CCCN(C(=O)CN)C[C@@H]3C)c12: 0.74
O=C1c2ccccc2-c2n[nH]c3cccc1c23: 0.58

Sample 5
Method: PRP chromatography estimate
Medium: 1,9-decadiene/PBS
pH: 7.4
Endpoint: logD
CC(C)C[C@@H]1NC(=O)[C@H](C)NC(=O)[C@H](C)NC(=O)[C@H](CCC(=O)N2CCCC2)NC(=O)[C@H](CC(C)C)NC(=O)[C@H](CC(C)C)NC(=O)[C@@H](C(C)C)NC1=O: -2.6
CC(C)C[C@@H]1NC(=O)[C@H](CC(C)C)NC(=O)[C@H](CC(C)C)NC(=O)[C@H](C(C)C)NC(=O)[C@@H](CCC(=O)N2CCCC2)NC(=O)[C@H](Cc2cscn2)NC(=O)[C@H](C)NC1=O: -1.96
CC(C)C[C@@H]1NC(=O)[C@H](C(C)C)NC(=O)[C@H](CCC(=O)N2CCCC2)NC(=O)[C@H](CCC(=O)N2CCCC2)NC(=O)[C@@H](Cc2cscn2)NC(=O)[C@H](CC(C)C)NC(=O)[C@@H](CC(C)C)NC1=O: -1.9
CC(C)C[C@@H]1NC(=O)[C@H](C)NC(=O)[C@@H](C(C)C)NC(=O)[C@H](C(C)C)NC(=O)[C@H](CC(C)C)NC(=O)[C@@H](CC(C)C)NC(=O)[C@H](CC(C)C)NC1=O: 0.347
CC(C)C[C@@H]1NC(=O)[C@H](CC(C)C)NC(=O)[C@@H](CC(C)C)NC(=O)[C@H](Cc2cscn2)NC(=O)[C@@H](Cc2cscn2)NC(=O)[C@H](Cc2cscn2)NC(=O)[C@H](CCC(=O)N2CCCC2)NC1=O: -2.12
CC(C)C[C@@H]1NC(=O)[C@H](CC(C)C)NC(=O)[C@H](CC(C)C)NC(=O)[C@H](CC(C)C)NC(=O)[C@@H](Cc2cscn2)NC(=O)[C@H](Cc2cscn2)NC(=O)[C@H](CCC(=O)N2CCCC2)NC1=O: -1.26

Other studies, line by line
C=CCc1ccc(O)c(-c2ccc(O)c(CC=C)c2)c1 — potency fold increase (Anoctamin-1 (ANO1, Homo sapiens, UniProt Q5XXA6, del476-501); chloride current, inhibitor, whole-cell voltage clamp; wild type at -100 mV, added: 10 µM magnolol; baseline: with over without magnolol): 2.79
Cl.O=C1[C@H]2CCCC[C@H]2C(=O)N1CCCCN1CCN(c2nsc3ccccc23)CC1 — inhibition (Sarcocystis neurona; GFP/FLUC expressing; 10 µM, confirmation screen): 99.3%
CC1=C(/C=C/C(C)=C/C=C/C(C)=C/C(=O)O)C(C)(C)CCC1 — viability (HuT78; trypan blue; concentration not given, unit not given; baseline: vehicle): 0.988 and 0.94 and 0.971

A few entries again (sample 2):
Mitogen-activated protein kinase 6 (MAPK6, Homo sapiens, UniProt Q16659); cell-free assay, competition with immobilised ligand: 94%
Tyrosine-protein kinase receptor TYRO3 (TYRO3, Homo sapiens, UniProt Q06418); cell-free assay, competition with immobilised ligand: 94%
Mitogen-activated protein kinase kinase kinase 7 (MAP3K7, Homo sapiens, UniProt O43318); cell-free assay, competition with immobilised ligand: 100%
